Experimental data of several laboratories.
Each numbered part is a random draw from the data of one study; scales do not carry over between parts.

Block 1 — method: competition protein-binding microarray; form: double-stranded DNA, one strand shown; medium: in vitro; concentration: 2 µM; together with: Pho4 competitor, 0.05 µM; direction: higher = stronger binding; quantity: fluorescence intensity
Target: Centromere-binding protein 1, full length, His-tagged (CBF1, Saccharomyces cerevisiae, UniProt P17106, residues 1-351)
Sequence of UniProt P17106 (whole entry, looked up): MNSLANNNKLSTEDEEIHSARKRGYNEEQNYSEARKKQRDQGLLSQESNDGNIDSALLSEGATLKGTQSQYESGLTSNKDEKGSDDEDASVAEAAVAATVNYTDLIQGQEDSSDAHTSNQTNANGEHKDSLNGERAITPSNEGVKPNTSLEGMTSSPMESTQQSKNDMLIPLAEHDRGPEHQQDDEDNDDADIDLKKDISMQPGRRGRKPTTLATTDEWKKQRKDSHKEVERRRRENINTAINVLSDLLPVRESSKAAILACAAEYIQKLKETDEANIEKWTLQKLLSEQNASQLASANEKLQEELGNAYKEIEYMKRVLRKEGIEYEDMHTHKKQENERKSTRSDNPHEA
Notes: whole 60-bp probe, lowest competitor level
Strand = CGTCAATTAAAATGTTACGTGAGATGGGTTAAATACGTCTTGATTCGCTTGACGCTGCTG; result = 86.1 a.u.
Strand = TTCTTGGAAAGAACCGTCGTGGGTATAACCAGACAAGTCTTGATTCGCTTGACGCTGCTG; result = 64.9 a.u.
Strand = TCTAGGGATGAGCTGAACGTGCAAATGATACCAACCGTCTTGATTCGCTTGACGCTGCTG; result = 91.5 a.u.
Strand = CTGATTTGCCTGTACCACATGTCATAAAAACTGCGGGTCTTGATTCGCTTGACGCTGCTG; result = 237 a.u.
Strand = CGTCCTAGTGATTGTTTCGTGGGTGCCATGAGGAAGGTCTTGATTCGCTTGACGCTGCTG; result = 90.3 a.u.
Strand = AGCTACCGATTCCATCACGCTTCCTGGTACGGGTGCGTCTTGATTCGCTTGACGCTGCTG; result = 88.9 a.u.
Strand = GCTCAAGCGTTCGGACGCGTGAAATGCTTCAACTGAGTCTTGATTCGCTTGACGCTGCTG; result = 60.8 a.u.
Strand = TGTTCATTCATTATTCAATGCAAAGTATAAAGACAGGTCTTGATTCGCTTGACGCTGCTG; result = 86.4 a.u.
Strand = CTAACGAAGGTTTGAGCCGTGGGTGACAAGCCAAGTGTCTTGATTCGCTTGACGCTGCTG; result = 59.9 a.u.
Strand = TGTTAATTAAACCATCACGGCTCATTCATTTGAGTTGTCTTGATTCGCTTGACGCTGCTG; result = 91.1 a.u.
Strand = TTCGATGATGCTTGTCACGTGAACGAAGACTTCCAGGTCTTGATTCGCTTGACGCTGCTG; result = 6700 a.u.
Strand = AGGTGCCTTAAAGAACACGCGGACACACTTGTTTGGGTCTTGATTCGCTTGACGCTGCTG; result = 108 a.u.
Strand = ATTTTCTCTGATTTTCTCGTGCGGACAATAAGTAAAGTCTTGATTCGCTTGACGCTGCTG; result = 90.6 a.u.
Strand = CGTCCTAGCGATTATCACGTGTTTTCCATGAGGAAGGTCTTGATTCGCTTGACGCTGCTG; result = 4630 a.u.
Strand = ACCCTTCAAATGGCACACCTGCAGGCAGAGGCATGGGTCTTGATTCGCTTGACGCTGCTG; result = 67.8 a.u.
Strand = ATCTAAAAGTTGGATAACGTGCTTTGGAATTTCTGAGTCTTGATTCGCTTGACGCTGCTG; result = 241 a.u.
Strand = AAAGCGGTAATTTTTCACGTGCGCTCACATATCTATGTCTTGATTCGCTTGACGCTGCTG; result = 1070 a.u.
Strand = AAGGGATGGTACTATCACATGTCTCTTGTATCCGCAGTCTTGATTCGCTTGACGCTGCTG; result = 361 a.u.
Strand = GTCTTGTCTCATTGCGGAGTGGGTGTCCCCACTTCAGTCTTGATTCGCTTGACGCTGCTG; result = 67 a.u.

Block 2 — method: protein binding microarray; form: double-stranded DNA, one strand shown; medium: in vitro; concentration: not given; reference: not given; direction: higher = stronger binding; quantity: E-score
Target: Histone acetyltransferase KAT6A, both winged helices, GST fusion (KAT6A, Homo sapiens, UniProt Q92794, residues 1-181)
Notes: 8-mer, flanks averaged, mean of 2 arrays, mostly near background
Construct (chain): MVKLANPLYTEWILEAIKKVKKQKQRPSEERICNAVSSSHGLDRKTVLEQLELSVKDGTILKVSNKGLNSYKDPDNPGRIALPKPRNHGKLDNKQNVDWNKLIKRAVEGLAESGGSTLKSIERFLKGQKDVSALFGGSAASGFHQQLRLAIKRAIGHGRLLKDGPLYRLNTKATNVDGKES
Strand = ACCGGATA; result = 0.0593
Strand = ACCGAGGC; result = -0.0276
Strand = GGCGAATA; result = 0.125
Strand = GGGAGTAC; result = -0.0283
Strand = CGTCTAAA; result = 0.0043
Strand = ATGTCCCG; result = 0.219
Strand = AGACGCAT; result = 0.118
Strand = GGAAGCAA; result = -0.0548
Strand = CCGAAAGG; result = 0.0947
Strand = ACAATGGG; result = -0.15
Strand = CTAAAGTA; result = -0.145
Strand = AGACGGCC; result = 0.258
Strand = GCTGTCCC; result = -0.0789
Strand = ATCTTGGA; result = -0.22
Strand = GTGCTAAA; result = -0.0634
Strand = ACGATAAG; result = -0.0333
Strand = AACACTTC; result = -0.163
Strand = AATGAGCA; result = -0.146
Strand = CCGCTAGA; result = 0.222
Strand = CAGATGCA; result = -0.188
Strand = AATGCCGG; result = 0.268

Block 3 — method: protein-binding microarray; form: double-stranded DNA, one strand shown; medium: in vitro; concentration: not given; direction: higher = stronger binding; quantity: E-score
Target: Myc proto-oncogene protein, bHLH-zipper, MAX partner unstated (MYC, Homo sapiens, UniProt P01106, residues 368-449)
Sequence of UniProt P01106 (368-449, looked up): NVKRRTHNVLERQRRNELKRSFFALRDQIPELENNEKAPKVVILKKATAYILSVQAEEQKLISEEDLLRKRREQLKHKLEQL
Notes: k-mer, scored over probes, only values ≥0.25
Strand = CATGGCTA; result = 0.361
Strand = CGTGTCAA; result = 0.366
Strand = CATGCAGC; result = 0.331
Strand = ATGCGTGA; result = 0.318
Strand = AACGTGGG; result = 0.383
Strand = CGTGGCGC; result = 0.387
Strand = AGCATGAG; result = 0.366
Strand = TCCCACGA; result = 0.252
Strand = CATGCAGA; result = 0.25
Strand = CGTGCCAC; result = 0.34
Strand = CCATGCGG; result = 0.479
Strand = CACCTCAC; result = 0.282
Strand = ACGTGAGA; result = 0.327
Strand = GAACGCAC; result = 0.291
Strand = CCCCCGCA; result = 0.284
Strand = ATGTGGCA; result = 0.273
Strand = GAACACGA; result = 0.355
Strand = CCACACCG; result = 0.295
Strand = ATGACGTG; result = 0.264
Strand = GCCTACAC; result = 0.276
Strand = CACGCTCG; result = 0.374
Strand = CCCCATGC; result = 0.411
Strand = CATGGCCC; result = 0.416
Strand = CGTGCACC; result = 0.366
Strand = ACGTCGTG; result = 0.296

Block 4 — method: RNA Bind-n-Seq; form: RNA; medium: in vitro; concentration: 200 nM; notes: whole 134-nt RNA, ends assumed; together with: 150 mM LiCl; reference: input library; direction: higher = stronger binding; quantity: log2 enrichment; library: 7-deaza-guanosine replaces G
Target: Fragile X messenger ribonucleoprotein 1, C-terminal low-complexity region (Fmr1, Mus musculus, UniProt P35922)
Strand = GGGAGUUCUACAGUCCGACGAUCCACAGACAACACGCACCCACACAGACACGGAGGGAAGGGGUUGGGAUGGGGACAGGGUGCACAGCAGGGCGGGGUAGGACCCCAGCCCCUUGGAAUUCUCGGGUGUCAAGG; result = 0.354
Strand = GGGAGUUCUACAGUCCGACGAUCCACAGACAAUACGCACCCACACAGACACAGAGGGAAGGGGUUGGGAUGGGGACAGGGUGCACAGCAGGGCGGGGUAGGACCCCAGCCCCUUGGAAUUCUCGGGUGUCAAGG; result = 0.492
Strand = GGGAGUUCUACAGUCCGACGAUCUGGGAGGUGGAUUUUGUUUAUUUUUUUAGCUCAUUUCCAGGGGUGGGAAUUUUUUUUUAAUCUGUGUCAUGAAUAAAGUUGUUUUUGAAAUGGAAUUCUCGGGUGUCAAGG; result = 0.0328
Strand = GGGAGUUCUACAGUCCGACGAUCAAGUCCUGUGCUACACAUCGUAUGUACCGAAUCGGGAAAAAGGGUUUUUGGGUGGGAAAGUAUUAUGUUACGCCGUUCGGAUCUGCACUUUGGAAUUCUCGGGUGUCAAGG; result = -1.66
Strand = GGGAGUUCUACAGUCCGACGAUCUGCCAGGCCCACCCCCAGGUGUUCCCGCGCCUGGGGGCCCACCCCUGUCCACCGGACCUAUAGUGGACCUGCUCCAGUACAGCCAGAAGGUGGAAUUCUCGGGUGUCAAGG; result = 0.529
Strand = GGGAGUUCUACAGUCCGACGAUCGCAGGAAGUAAAAACAAAUGGAAAUGCUUCGGAUAGUGGCAGGGGUGGGGGUUGCUAAGGAAAGGGUGGGAUGGGAGUGGGUAAAGAGCUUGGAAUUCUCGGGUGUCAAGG; result = 1.54
Strand = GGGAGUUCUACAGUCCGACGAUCUAACUUUAGAGGAGGAUCUGAUGGCUAUGGCAGUGGACGUGGAUUUGGGGAUGGCUAUAAUGGGUAUGGAGGAGGACCUGGAGGUGGCAAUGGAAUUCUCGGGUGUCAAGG; result = 0.0402
Strand = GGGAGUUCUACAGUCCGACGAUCUCAAGUCCUGUGCUACACAUCGUAUGUACCGAAUCGGGGUUGGUUGGGGUUGGGGAAAGUAUUAUGUUACGCCGUUCGGAUCUGCACUUCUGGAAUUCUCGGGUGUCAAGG; result = -1.11

Some of these lines once more (block 3):
Strand = ATGTGGCA; result = 0.273
Strand = GAACACGA; result = 0.355
Strand = CCACACCG; result = 0.295
Strand = ATGACGTG; result = 0.264
Strand = GCCTACAC; result = 0.276
Strand = CACGCTCG; result = 0.374
Strand = CCCCATGC; result = 0.411
Strand = CATGGCCC; result = 0.416
Strand = CGTGCACC; result = 0.366
